Experimental data from different studies.
Lines come from different studies, so protocols differ. ± gives the spread as reported.
Cell line: SK-OV-3

SMILES | assay | system | conditions | how to read | measurement | value
C#C[C@@]1(O)[C@@H](CO)O[C@@H](n2cc(Br)c3c(N)ncnc32)[C@@H]1O | SRB |  | NCI-60 screen |  | TGI | 439 nM
CCn1cc(-c2cc(Cn3ccnc3)cc3c2CCN([C@H](c2cc(OC)ccn2)C2CC2)C3=O)c(C(F)(F)F)n1 | cell growth, inhibitor |  | 120 h |  | EC50 | > 30000 nM
C=CC(=O)N1CCC(Cc2cccc(C(=O)N3CCN(c4nc(-c5cnc(N)nc5C(F)F)nc(N5CCOCC5)n4)CC3)c2)CC1 | Akt phosphorylation, inhibitor, in-cell western, measured: Akt pSer473 |  |  |  | IC50 | 40.7 nM
Cn1cc(-c2ccc(F)c(C(F)(F)F)c2)nc1C1CCN(c2ncnc3[nH]ncc23)CC1 | ATP | 2D monolayer culture | 10 µM, 4 days | reference: untreated | relative cell number | 104%
C=CC(=O)N1CCC(C(=O)NCC(=O)N2CCN(c3nc(-c4cnc(N)nc4C(F)F)nc(N4CCOCC4)n3)CC2)CC1 | Akt phosphorylation, inhibitor, in-cell western, measured: Akt pSer473 |  | 1 h |  | IC50 | 81.7 nM
Clc1ccc(C2(c3ccc(-c4cn[nH]c4)cc3)CCNCC2)cc1 | ATP | 3D gellan gum culture | 0.01 µM, 4 days | reference: untreated | relative cell number | 82.7%
CCN(CC)c1ccc(C=NNC(=O)CSc2nc3ccccc3c(=O)n2Cc2ccc(S(N)(=O)=O)cc2)c(O)c1 | NCI five-dose screen |  |  |  | TGI | > 100000 nM
Cc1cc(C)n(-c2nc(-c3ccc(Cl)cc3)c3c(NC(=O)c4ccccc4)nnc-3[nH]2)n1 | SRB |  | 10 µM, NCI60 single-dose screen | reference: untreated | cell growth | 110%
C#C[C@@]1(O)[C@@H](CO)O[C@@H](n2cc(F)c3c(N)ncnc32)[C@@H]1O | SRB |  | NCI-60 screen |  | TGI | 2090 nM
CCn1c(-c2nonc2N)nc2cncc(CNC3CCNCC3)c21 | ATP |  | 0.1 µM, 4 days, 3D U-bottom low-attachment | reference: untreated | relative cell number | 113%
C[C@H](Nc1ccc2c(c1)OCCn1cc(N3C(=O)OC[C@H]3C(F)F)nc1-2)C(N)=O | FOXO1 translocation, kinase translocation reporter |  | 2 h |  | IC50 | 578 nM
O=C(Nc1nnc2n3c(Cc4ccccc4)n[nH]c3nc(-c3ccc(Cl)cc3)c1-2)c1ccccc1 | SRB |  | 10 µM, NCI60 single-dose screen | reference: untreated | cell growth | 103%
O=C1NCCc2[nH]c(-c3ccncc3)cc21 | MTS |  | NCI60 panel |  | IC50 | > 10000 nM
Cc1n[nH]c2nc(-c3ccc(Cl)cc3)c3c(NC(=O)c4ccccc4)nnc-3n12 | SRB |  | 10 µM, NCI60 single-dose screen | reference: untreated | cell growth | 108%
C=CC(=O)N1CCC(CCCC(=O)N2CCN(c3nc(-c4cnc(N)nc4C(F)F)nc(N4CCOCC4)n3)CC2)CC1 | Akt phosphorylation, inhibitor, in-cell western, measured: Akt pSer473 |  |  |  | IC50 | 21.4 nM
O=C(Nc1nnc2[nH]c(=S)[nH]c(-c3ccc(Cl)cc3)c1-2)c1ccccc1 | SRB |  | 10 µM, NCI60 single-dose screen | reference: untreated | cell growth | 105%
Cn1cncc1C1=CN(c2ncnc3[nH]cnc23)CCS1 |  |  | ovarian cancer |  | TGI | 81300 nM
Cc1nc(NC(=O)N2CCC[C@H]2C(N)=O)sc1-c1ccnc(C(C)(C)C(F)(F)F)c1 | western blot, measured: phospho-S6 Ser235/Ser236 |  | 2 h |  | IC50 | 162 nM
CCCCCCOC(=O)[C@]1(O)C[C@@H]2O[C@@]1(C)n1c3ccccc3c3c4c(c5c6ccccc6n2c5c31)C(=O)NC4 | ATP |  | 1 µM, 4 days, 3D U-bottom low-attachment | reference: untreated | relative cell number | 97.8%
C=CC(=O)N1CCC(COCC(=O)N2CCN(c3nc(-c4cnc(N)nc4C(F)F)nc(N4CCOCC4)n3)CC2)CC1 | Akt phosphorylation, inhibitor, in-cell western, measured: Akt pSer473 |  | 1 h |  | IC50 | 19.3 nM
C[C@H](Nc1ccc2c(c1)OCCn1cc(N3C(=O)OC[C@H]3C(F)F)nc1-2)C(N)=O | cell growth, CellTiter-Glo |  | 120 h |  | Hill coefficient GR curve | 0.698
CSc1nc(-c2ccc(Cl)cc2)c2c(NC(=O)c3ccccc3)nnc-2[nH]1 | SRB |  | 10 µM, NCI60 single-dose screen | reference: untreated | cell growth | 82.6%
C=CC(=O)N1CCC(COCC(=O)N2CCN(c3nc(-c4cnc(N)nc4C(F)F)nc(N4CCOC[C@@H]4C)n3)CC2)CC1 | western blot, measured: phospho-S6 Ser235/Ser236 |  | 2 h |  | IC50 | 36.7 nM
CC/C(=N\NC(=O)NCc1cccc(O)c1)c1ccc(O)c(C)c1O | Western blot |  | 10 µM, 6 h, 3D gellan gum culture, unit not given | reference: DMSO | TAZ band intensity | 0.22 ± 0.07
C=CC(=O)N1CCC(C(=O)N(C)CC(=O)N2CCN(c3nc(-c4cnc(N)nc4C(F)F)nc(N4CCOCC4)n3)CC2)CC1 | Akt phosphorylation, inhibitor, in-cell western, measured: Akt pSer473 |  | 1 h |  | IC50 | 85.7 nM
CCOC(=O)CSc1nc(-c2ccc(Cl)cc2)c2c(NC(=O)c3ccccc3)nnc-2[nH]1 | SRB |  | 10 µM, NCI60 single-dose screen | reference: untreated | cell growth | 94.5%
O=C(O)c1ccc(-c2c[nH]c3ncc(-c4ccccc4)cc23)cc1C1CCCC1 | ATP |  | 0.1 µM, 4 days, 3D gellan gum culture | reference: untreated | relative cell number | 96.6%
CC(=O)O[C@H]1C(=O)[C@@]2(C)[C@H]([C@H](OC(=O)c3ccccc3)[C@]3(O)C[C@H](OC(=O)[C@H](O)[C@@H](NC(=O)c4ccccc4)c4ccccc4)C(C)=C1C3(C)C)[C@]1(OC(C)=O)CO[C@@H]1C[C@@H]2O | cell viability, CCK-8 |  | 48 h, single drug |  | IC50 | 8290 ± 940 nM

Excerpt of the above:
SMILES | assay | system | conditions | how to read | measurement | value
C=CC(=O)N1CCC(CCCC(=O)N2CCN(c3nc(-c4cnc(N)nc4C(F)F)nc(N4CCOCC4)n3)CC2)CC1 | Akt phosphorylation, inhibitor, in-cell western, measured: Akt pSer473 |  |  |  | IC50 | 21.4 nM
CCOC(=O)CSc1nc(-c2ccc(Cl)cc2)c2c(NC(=O)c3ccccc3)nnc-2[nH]1 | SRB |  | 10 µM, NCI60 single-dose screen | reference: untreated | cell growth | 94.5%
C#C[C@@]1(O)[C@@H](CO)O[C@@H](n2cc(Br)c3c(N)ncnc32)[C@@H]1O | SRB |  | NCI-60 screen |  | TGI | 439 nM
